Measurements pooled from the literature.
Each line is one published result; not all experiments were run side by side. Numbers after ± are the reported error.

SMILES	assay	system	conditions	tissue uptake
CCCC[C@H](NC(=O)CNC(=O)CNC(=O)[C@H](CCCCNC(=O)[C@H](CC(=O)O)NC(=O)C(C)c1ccc(CC(C)C)cc1)NC(=O)CN1CCN(CC(=O)O)CCN(CC(=O)O)CCN(CC(=O)O)CC1)C(=O)N[C@H]1CC(=O)NCCCC[C@@H](C(N)=O)NC(=O)[C@H](Cc2c[nH]c3ccccc23)NC(=O)[C@H](CCCNC(=N)N)NC(=O)[C@@H](Cc2ccccc2)NC(=O)[C@H](Cc2c[nH]cn2)NC1=O (some centres unmarked) [lutetium-177 labelled]		C57 mice, tumour-bearing, bone	2 h	0.38 ± 0.17 %ID/g
Cc1cc(C)n(CCN(CCN)CCCCCCNC(=O)[C@@H](N)Cc2c[nH]cn2)n1.[99Tc+].[C-]#[O+].[C-]#[O+].[C-]#[O+]		BALB/c nude mice, MCF7 xenograft, blood	intravenous, 4 h	0.24 ± 0.08 %IA/g
O=C(NCC1OC2CCC=CCCC2O1)c1ccc(COCCOCCOCC[18F])cc1 (centres unmarked)		healthy female BALB/c nude mice, small intestine	intravenous, 7.4 MBq per mouse, 120 min	2.9 ± 0.1 %ID/g
N#C[C@@H]1CCCN1C(=O)CNC(=O)c1ccnc2ccc(OCCCN3CCN(C(=O)CCc4ccc5c(c4)CN4CCN6CC(=O)[O][68Ga-]([O]C(=O)C4)([O]5)[O]c4ccc(CCC(=O)N5CCN(CCCOc7ccc8nccc(C(=O)NCC(=O)N9CCC[C@H]9C#N)c8c7)CC5)cc4C6)CC3)cc12		BALB/c nude mice, U-87 MG xenograft, stomach	1 h, blocking, together with: DOTA-FAPI-04 40 nmol/mouse co-injected	1.67 ± 0.8 %ID/g
CC(C)C[C@H](NC(=O)[C@@H](CCCCNC(=O)[C@@H](Cc1ccccc1)NC(=O)CCCCCCCNC(=O)CN1CCN(CC(=O)O)CCN(CC(=O)O)CCN(CC(=O)O)CC1)NC(=O)[C@H](Cc1ccc(O)cc1)NC(=O)[C@H](CO)NC(=O)[C@H](Cc1c[nH]c2ccccc12)NC(=O)[C@H](Cc1c[nH]cn1)NC(=O)[C@@H]1CCC(=O)N1)C(=O)N[C@@H](CCCNC(=N)N)C(=O)N1CCC[C@H]1C(=O)NCC(N)=O [indium-111 labelled]	biodistribution	male athymic nude mice, DU-145 prostate cancer xenograft, muscle	intravenous, 0.037 MBq, 4 h post-injection	0.15 ± 0.07 %ID/g
COc1ccc(Nc2nc(Nc3ccc(OCCOCC[18F])cc3)ncc2Br)cc1		ICR mice, S180 tumour, stomach	intravenous, 30 min, together with: PF-562271 33 mg/kg oral block	0.57 ± 0.09 %ID
O=C([O-])CN1CCN(CC(=O)[O-])CCN(CC(=O)NC[C@H]2CC[C@H](C(=O)N[C@H](Cc3cnc4ccccc4c3)C(=O)NCCCC[C@H](NC(=O)N[C@@H](CCC(=O)O)C(=O)O)C(=O)O)CC2)CCN(CC(=O)[O-])CC1.[64Cu+2]	ex vivo gamma counting	22Rv1 tumour-bearing mice, brain	intravenous, 0.74 MBq, 1 h post-injection	0.36 %ID/g
CCCC[C@H](NC(=O)COCCOCCNC(=O)CN1CCN(CC(=O)O)CCN(CC(=O)O)CC1)C(=O)N[C@H]1CC(=O)NCCCC[C@@H](C(N)=O)NC(=O)[C@H](Cc2c[nH]c3ccccc23)NC(=O)[C@H](CCCNC(=N)N)NC(=O)[C@@H](Cc2ccccc2)NC(=O)[C@H](Cc2c[nH]cn2)NC1=O [fluorine-18 labelled]		C57 mice B16-F10 melanoma, tumor	intravenous, 0.37 MBq, 2 h	11.7 ± 1.56 %ID/g
Cc1cc(C)n(CCN(CCN)CCCCCCNC(=O)[C@@H](N)Cc2c[nH]c3ccccc23)n1.[99Tc+].[C-]#[O+].[C-]#[O+].[C-]#[O+]		BALB/c nude mice, A549 xenograft, kidney	intravenous, 15 min	12.9 ± 1.39 %IA/g
CCCC[C@H](NC(=O)CCCCCCCNC(=O)CN1CCN(CC(=O)O)CCN(CC(=O)O)CC1)C(=O)N[C@H]1CC(=O)NCCCC[C@@H](C(N)=O)NC(=O)[C@H](Cc2c[nH]c3ccccc23)NC(=O)[C@H](CCCNC(=N)N)NC(=O)[C@@H](Cc2ccccc2)NC(=O)[C@H](Cc2c[nH]cn2)NC1=O [fluorine-18 labelled]		C57 mice B16-F10 melanoma, brain	intravenous, 0.37 MBq, 2 h	0.05 ± 0.01 %ID/g
O=C(NCC1OC2CCC=CCCC2O1)c1ccc([18F])nc1 (centres unmarked)		healthy female BALB/c nude mice, pancreas	intravenous, 7.4 MBq per mouse, 2 min	4.6 ± 0.9 %ID/g

Excerpt of the above:
SMILES	assay	system	conditions	tissue uptake
N#C[C@@H]1CCCN1C(=O)CNC(=O)c1ccnc2ccc(OCCCN3CCN(C(=O)CCc4ccc5c(c4)CN4CCN6CC(=O)[O][68Ga-]([O]C(=O)C4)([O]5)[O]c4ccc(CCC(=O)N5CCN(CCCOc7ccc8nccc(C(=O)NCC(=O)N9CCC[C@H]9C#N)c8c7)CC5)cc4C6)CC3)cc12		BALB/c nude mice, U-87 MG xenograft, stomach	1 h, blocking, together with: DOTA-FAPI-04 40 nmol/mouse co-injected	1.67 ± 0.8 %ID/g
